Measured values from different studies.
Each line is one published result; not all experiments were run side by side.
Sequence of UniProt O15146 (whole entry, looked up): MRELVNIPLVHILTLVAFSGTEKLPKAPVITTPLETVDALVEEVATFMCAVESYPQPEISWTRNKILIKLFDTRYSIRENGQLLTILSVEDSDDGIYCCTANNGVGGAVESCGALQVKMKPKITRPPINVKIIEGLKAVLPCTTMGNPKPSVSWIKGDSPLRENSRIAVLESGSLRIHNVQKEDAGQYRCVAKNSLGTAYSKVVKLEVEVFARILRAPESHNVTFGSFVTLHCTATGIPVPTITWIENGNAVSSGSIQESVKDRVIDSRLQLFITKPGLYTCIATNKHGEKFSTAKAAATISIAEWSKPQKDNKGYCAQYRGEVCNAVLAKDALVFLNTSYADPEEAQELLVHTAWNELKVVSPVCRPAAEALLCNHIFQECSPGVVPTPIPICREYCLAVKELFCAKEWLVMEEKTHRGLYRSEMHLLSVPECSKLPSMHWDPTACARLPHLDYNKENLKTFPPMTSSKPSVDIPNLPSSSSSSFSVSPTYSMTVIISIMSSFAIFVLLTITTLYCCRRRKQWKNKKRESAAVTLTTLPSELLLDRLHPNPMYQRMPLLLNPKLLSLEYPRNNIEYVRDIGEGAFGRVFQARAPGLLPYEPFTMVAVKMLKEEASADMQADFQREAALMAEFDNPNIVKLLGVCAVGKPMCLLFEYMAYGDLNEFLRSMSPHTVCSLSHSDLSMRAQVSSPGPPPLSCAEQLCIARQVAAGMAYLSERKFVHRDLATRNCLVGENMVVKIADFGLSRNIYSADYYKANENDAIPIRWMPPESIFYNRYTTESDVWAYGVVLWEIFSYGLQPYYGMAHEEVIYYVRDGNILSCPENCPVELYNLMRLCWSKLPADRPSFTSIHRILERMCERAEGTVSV
Sequence of UniProt Q16566 (whole entry, looked up): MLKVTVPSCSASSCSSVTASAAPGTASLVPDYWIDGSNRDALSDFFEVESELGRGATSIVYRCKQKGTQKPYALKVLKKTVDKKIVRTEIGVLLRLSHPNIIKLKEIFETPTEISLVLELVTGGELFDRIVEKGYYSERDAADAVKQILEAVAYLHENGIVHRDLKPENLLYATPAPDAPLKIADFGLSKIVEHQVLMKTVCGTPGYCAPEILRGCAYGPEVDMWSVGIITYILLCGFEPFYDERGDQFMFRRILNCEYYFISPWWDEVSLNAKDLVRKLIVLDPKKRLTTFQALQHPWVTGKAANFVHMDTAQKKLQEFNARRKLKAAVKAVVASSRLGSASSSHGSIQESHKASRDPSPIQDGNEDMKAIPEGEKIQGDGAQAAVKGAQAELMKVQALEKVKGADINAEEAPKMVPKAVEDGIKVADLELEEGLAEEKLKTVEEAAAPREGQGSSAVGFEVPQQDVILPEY
Sequence of UniProt O15111 (whole entry, looked up): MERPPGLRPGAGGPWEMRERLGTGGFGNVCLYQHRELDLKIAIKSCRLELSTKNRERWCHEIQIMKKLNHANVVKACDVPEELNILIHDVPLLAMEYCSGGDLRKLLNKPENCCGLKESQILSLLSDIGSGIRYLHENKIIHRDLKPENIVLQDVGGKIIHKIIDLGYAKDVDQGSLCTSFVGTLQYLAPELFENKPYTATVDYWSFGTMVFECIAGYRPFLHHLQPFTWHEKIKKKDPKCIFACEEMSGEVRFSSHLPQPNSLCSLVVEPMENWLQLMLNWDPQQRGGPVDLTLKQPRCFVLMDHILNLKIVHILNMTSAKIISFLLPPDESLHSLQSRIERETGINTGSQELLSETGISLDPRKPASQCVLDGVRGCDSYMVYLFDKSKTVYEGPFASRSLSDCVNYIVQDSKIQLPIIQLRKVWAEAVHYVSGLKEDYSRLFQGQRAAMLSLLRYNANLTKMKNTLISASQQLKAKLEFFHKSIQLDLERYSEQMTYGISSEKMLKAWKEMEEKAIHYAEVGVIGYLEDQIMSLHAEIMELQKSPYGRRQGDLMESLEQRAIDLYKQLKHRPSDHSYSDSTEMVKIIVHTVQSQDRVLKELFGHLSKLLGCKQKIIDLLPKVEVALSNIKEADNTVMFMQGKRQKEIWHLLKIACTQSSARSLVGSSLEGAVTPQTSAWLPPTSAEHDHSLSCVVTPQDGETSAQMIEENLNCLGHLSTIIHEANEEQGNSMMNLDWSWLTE
Sequence of UniProt O76039 (whole entry, looked up): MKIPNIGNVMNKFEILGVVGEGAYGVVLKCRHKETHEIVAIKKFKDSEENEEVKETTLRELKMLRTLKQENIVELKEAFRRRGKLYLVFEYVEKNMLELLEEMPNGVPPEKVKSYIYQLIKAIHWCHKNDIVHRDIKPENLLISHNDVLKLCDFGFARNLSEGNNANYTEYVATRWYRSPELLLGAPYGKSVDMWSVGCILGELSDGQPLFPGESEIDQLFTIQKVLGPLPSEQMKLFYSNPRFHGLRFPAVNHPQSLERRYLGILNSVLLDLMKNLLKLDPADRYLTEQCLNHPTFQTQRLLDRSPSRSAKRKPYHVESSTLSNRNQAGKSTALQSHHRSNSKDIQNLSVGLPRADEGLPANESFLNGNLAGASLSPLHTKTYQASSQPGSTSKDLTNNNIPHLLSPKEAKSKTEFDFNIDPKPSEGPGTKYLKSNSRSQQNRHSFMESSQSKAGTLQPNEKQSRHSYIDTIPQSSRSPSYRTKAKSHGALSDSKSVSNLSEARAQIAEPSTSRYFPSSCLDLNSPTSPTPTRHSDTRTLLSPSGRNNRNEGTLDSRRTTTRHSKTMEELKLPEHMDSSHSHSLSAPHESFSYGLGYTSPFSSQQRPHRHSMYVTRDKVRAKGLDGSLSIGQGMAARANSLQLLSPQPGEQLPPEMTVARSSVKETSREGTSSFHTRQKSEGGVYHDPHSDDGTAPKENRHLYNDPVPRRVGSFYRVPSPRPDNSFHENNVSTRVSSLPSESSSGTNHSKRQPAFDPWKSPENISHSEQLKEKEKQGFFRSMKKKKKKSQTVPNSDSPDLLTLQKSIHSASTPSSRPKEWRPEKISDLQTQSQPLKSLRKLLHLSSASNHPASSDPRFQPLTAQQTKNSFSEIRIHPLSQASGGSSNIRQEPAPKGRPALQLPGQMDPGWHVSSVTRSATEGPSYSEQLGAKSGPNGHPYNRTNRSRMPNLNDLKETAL

Nc1ncc(-c2nc(N3CCOCC3)nc(N3CCOCC3)n2)c(C(F)F)n1
remaining binding (Cyclin-dependent kinase-like 5 (CDKL5, Homo sapiens, UniProt O76039); binding, competition with immobilised ligand; 10 µM): 67%

N.N.[Cl][Pt][Cl]
IC50 (OCI-Ly3; cell growth or viability, ATP luminescence; 72 h): 850 nM

COc1ccc(-c2ccc3c(N)c(C(=O)N4CCOCC4)sc3n2)cc1OC
IC50 (HepG2; cell growth or viability; 72 h): > 100000 nM

N.N.[Cl][Pt][Cl]
IC50 (A549; cell growth or viability, MTT): 7540 nM

O=C1CCP(=S)(c2ccccc2)CC1
IC50 (HCT-116; cell growth or viability, MTT; 72 h): 4400 nM

COc1cc(C(=O)c2nc(-c3cccc4c3ccn4C)c[nH]2)cc(OC)c1OC
IC50 (A-375; cell growth or viability, MTS; 72 h): 11.9 nM

COc1ccc(-c2cc(C(F)(F)F)c3c(N)c(C(=O)Nc4ccccc4)sc3n2)cc1
IC50 (HepG2; cell growth or viability; 72 h): > 100000 nM

CS(=O)(=O)OCCN(CCBr)c1c(C(=O)NCCO)cc([N+](=O)[O-])cc1[N+](=O)[O-]
IC50 (T-ALL; cell growth or viability; 48 h): 1800 nM

Nc1c(C(=O)N2CCOCC2)sc2nc(Cl)ccc12
IC50 (HepG2; cell growth or viability; 72 h): > 100000 nM

N.N.[Cl][Pt][Cl]
IC50 (A549; cell growth or viability, MTT; 72 h): 7000 nM

Nc1c(C(=O)N2CCOCC2)sc2ncccc12
IC50 (HepG2; cell growth or viability; 72 h): > 100000 nM

S=P1(c2ccccc2)CCCCC1
IC50 (HCT-116; cell growth or viability, MTT; 72 h): > 100000 nM

COc1cc(C(=O)c2nc(-c3cccc4[nH]ccc34)c[nH]2)cc(OC)c1OC
IC50 (M14; cell growth or viability, MTS; 72 h): 0.6 nM

COc1ccc(-c2cc(C(F)(F)F)c3c(N)c(C(=O)NCCSC)sc3n2)cc1
IC50 (HepG2; cell growth or viability; 72 h): > 100000 nM

COc1cc(C(=O)c2nc(-c3c[nH]c4ccccc34)c[nH]2)cc(OC)c1OC
IC50 (M14; cell growth or viability, MTS; 72 h): 23.5 nM

O=C(c1cc2ccc(-c3ccccc3)nc2s1)N1CCCC1
IC50 (HepG2; cell growth or viability; 72 h): 49000 nM

COc1cc(C(=O)c2nc(-c3cccc4[nH]ccc34)cn2C)cc(OC)c1OC
IC50 (M14; cell growth or viability, MTS; 72 h): 472 nM

COc1ccc(-c2ccc3c(N)c(C(=O)Nc4cccc(C)c4C)sc3n2)cc1
IC50 (HepG2; cell growth or viability; 72 h): > 100000 nM

COc1cc(C(=O)c2nc(-c3cccc4occc34)c[nH]2)cc(OC)c1OC
IC50 (A-375; cell growth or viability, MTS; 72 h): 69.4 nM

N.N.[Cl][Pt][Cl]
IC50 (HCT-116; cell growth or viability, MTT): 6540 nM

COc1ncccc1-c1cnn2ccc(N3CCN(C(=O)OC(C)C)CC3)nc12
remaining binding (Muscle, skeletal receptor tyrosine-protein kinase (MUSK, Homo sapiens, UniProt O15146); binding, competition with immobilised ligand; 1 µM): 100%

COc1cc(C(=O)c2nc(-c3cccc4ncccc34)c[nH]2)cc(OC)c1OC
IC50 (M14; cell growth or viability, MTS; 72 h): > 1000 nM

Cc1cccc(NC(=O)c2sc3nc(-c4ccccc4)cc(C(F)(F)F)c3c2N)c1C
IC50 (HepG2; cell growth or viability; 72 h): > 100000 nM

Cc1nn(C)cc1-c1nc2c(N3CCN(Cc4ccc(Cl)cc4)CC3)c(Cl)cnc2[nH]1
remaining binding (Inhibitor of nuclear factor kappa-B kinase subunit alpha (CHUK, Homo sapiens, UniProt O15111); binding, competition with immobilised ligand; 1 µM): 100%

COc1cc2cc(c1Cl)N(C)C(=O)C[C@H](OC(=O)[C@H](C)N(C)C(=O)CCS)[C@]1(C)O[C@H]1[C@H](C)[C@@H]1C[C@@](O)(NC(=O)O1)[C@H](OC)/C=C/C=C(\C)C2
IC50 (B16; cell growth or viability, SRB; 48 h): 32.3 nM

COc1cc(C(=O)c2nc(-c3cccc4[nH]ccc34)c(Br)[nH]2)cc(OC)c1OC
IC50 (A-375; cell growth or viability, MTS; 72 h): > 1000 nM

Cc1sc2c(c1C)C(c1ccc(Cl)cc1)=N[C@@H](CC(=O)OC(C)(C)C)c1nnc(C)n1-2
IC50 (K562; cell growth or viability, ATP luminescence): 1060 nM

[2H]c1c([2H])c([C@]2([2H])CCCN2C(=O)C(C)(C)Oc2ccc3cn[nH]c3c2)c([2H])c([2H])c1C([2H])([2H])[2H]
remaining binding (Calcium/calmodulin-dependent protein kinase type IV (CAMK4, Homo sapiens, UniProt Q16566); binding, competition with immobilised ligand; 1 µM): 79%

COc1cc(C(=O)c2nc(-c3ccc4ccccc4c3)c[nH]2)cc(OC)c1OC
IC50 (M14; cell growth or viability, MTS; 72 h): 240 nM

CC[C@@]1(O)C(=O)OCc2c1cc1n(c2=O)Cc2cc3ccccc3nc2-1
IC50 (FR2; cell growth or viability, SRB; 48 h): < 100000 nM

Excerpt of the above:
COc1cc2cc(c1Cl)N(C)C(=O)C[C@H](OC(=O)[C@H](C)N(C)C(=O)CCS)[C@]1(C)O[C@H]1[C@H](C)[C@@H]1C[C@@](O)(NC(=O)O1)[C@H](OC)/C=C/C=C(\C)C2
IC50 (B16; cell growth or viability, SRB; 48 h): 32.3 nM

COc1cc(C(=O)c2nc(-c3cccc4[nH]ccc34)c(Br)[nH]2)cc(OC)c1OC
IC50 (A-375; cell growth or viability, MTS; 72 h): > 1000 nM

Cc1sc2c(c1C)C(c1ccc(Cl)cc1)=N[C@@H](CC(=O)OC(C)(C)C)c1nnc(C)n1-2
IC50 (K562; cell growth or viability, ATP luminescence): 1060 nM

[2H]c1c([2H])c([C@]2([2H])CCCN2C(=O)C(C)(C)Oc2ccc3cn[nH]c3c2)c([2H])c([2H])c1C([2H])([2H])[2H]
remaining binding (Calcium/calmodulin-dependent protein kinase type IV (CAMK4, Homo sapiens, UniProt Q16566); binding, competition with immobilised ligand; 1 µM): 79%

COc1cc(C(=O)c2nc(-c3ccc4ccccc4c3)c[nH]2)cc(OC)c1OC
IC50 (M14; cell growth or viability, MTS; 72 h): 240 nM
